Measurements collected from several papers.
Protocols differ between the studies behind these lines. Numbers after ± are the reported error.

SMILES	technique	matrix	tested at	pH	temperature	notes	logP
C[C@@H](NC(=O)c1ccccc1CCC(=O)NNC(=O)/C=C/C(=O)N(C)C)c1cccc2ccccc12							2.6
CCn1c(SCC(=O)Nc2cccc(C(C)=O)c2)nnc1-c1ccncc1		octanol/buffer		pH 11		known kinase inactives set	1.49
CN1C(C(=O)Nc2ccccn2)=C(O)c2sccc2S1(=O)=O							0.7
Cc1cc(C)c(S(=O)(=O)N(C)CC(=O)N2CCC(C(N)=O)CC2)c(C)c1		octanol/buffer		pH 11		known kinase inactives set	1.38
N#Cc1ccc([C@H]2CCc3cncn32)c(F)c1							1.7
CCNC(=O)c1ncccc1O	shake-flask, potentiometric	1-octanol/water					1.6
CCOC(=O)/C=C/C(=O)NNC(=O)CCc1ccccc1C(=O)N[C@H](C)c1cccc2ccccc12							3.4
COc1ccc(NC(=O)CSc2nnc(-c3ccncc3)[nH]2)cc1		octanol/buffer		pH 11		known kinase inactives set	0
CCn1cc(C(=O)O)c(=O)c2ccc(C)nc21	shake-flask, potentiometric	1-octanol/water					1.5
CC1(C)C2CCC1(CS(=O)(=O)O)C(=O)C2.O=C(NCCCNc1nc(Nc2cccc(NC(=O)N3CCCC3)c2)ncc1I)c1cccs1	shake flask	octanol/water					1.35 ± 0.1
C=Cc1c(C)c2cc3nc(c4c5[nH]c(cc6nc(cc1[nH]2)C(C)=C6CC)c(C)c5C(=O)C4)[C@@H](CCC(=O)OC)[C@@H]3C	shake flask	octanol/water 2:1					0.663
CN1C(C(=O)Nc2ccccn2)=C(O)c2sc(Cl)cc2S1(=O)=O	shake-flask, potentiometric	1-octanol/water					2.3
CC/C=C\C/C=C\C/C=C\C/C=C\C/C=C\C/C=C\CCC(=O)O.Cc1cc(/C=C/C#N)cc(C)c1Nc1ccnc(Nc2ccc(C#N)cc2)n1		octanol/water			room temperature		2.39 ± 0.15
CO[C@]1(C(=O)N[C@@H](C)c2ccc(-n3cc(F)cn3)nc2)CC[C@H](c2nc(C)cc(Nc3cc(C)[nH]n3)n2)CC1		octanol/water					3.87
O=C(NC1CCCCC1)c1nccc(Cl)c1O	shake-flask, potentiometric	1-octanol/water					2.9
C[C@@H](NC(=O)c1ccccc1CCC(=O)NNC(=O)/C=C/C(=O)OCc1ccccc1)c1cccc2ccccc12							4.6
CN1C(C(=O)Nc2nccs2)=C(O)c2ccccc2S1(=O)=O	shake-flask, potentiometric	1-octanol/water					2.2

SMILES	technique	matrix	tested at	pH	temperature	notes	logP
C[C@@H](NC(=O)c1ccccc1CCC(=O)NNC(=O)/C=C/C(=O)OCc1ccc2ccccc2n1)c1cccc2ccccc12							5
CCc1nnc(NS(=O)(=O)c2ccc(NC(=O)c3ccc(F)cc3)cc2)s1		octanol/buffer		pH 11		known kinase inactives set	0.53
O=C(NC1CCCCC1)c1ncccc1O	shake-flask, potentiometric	1-octanol/water					3.6
O=C(NO)[C@H]1COC(c2c[nH]c3ccc(F)cc23)=N1		octanol/buffer		pH 11			-0.18
CN(Cc1cnc2nc(N)nc(N)c2n1)c1ccc(C(=O)N[C@@H](CCC(=O)O)C(=O)O)cc1							0.94
C[C@@H](NC(=O)c1ccccc1CCC(=O)NNC(=O)/C=C/C(=O)OC1CCC1)c1cccc2ccccc12							4
[Cl][Ru][Cl].c1ccc(-c2ccccn2)nc1.c1ccc(-c2ccccn2)nc1.c1ccc(-c2ccccn2)nc1	shake flask octanol-water		50 µM			chloride salt	negative
C=CC(=O)N(C)CCOc1c(N)ncnc1-c1cc(F)cc(NC(=O)c2ccc(C3CC3)cc2F)c1C	titration	octanol/water					2.8
O=C(Cn1cnc([N+](=O)[O-])n1)Nc1ccc(N2CCOCC2)c(Cl)c1		octanol/buffer		pH 11		known kinase inactives set	1.91
CC(=O)/C=C/C(=O)NNC(=O)CCc1ccccc1C(=O)N[C@H](C)c1cccc2ccccc12							2.8
CC(C)C1c2cc(C3CC3c3cc(/C=C/C4CC4)c4cc(C(=N)N)ccc4c3)ccc2CCN1C (stereo not shown)		octanol/buffer		pH 11		urokinase ligand set	> 4.5
CNC(=O)/C=C/C(=O)NNC(=O)CCc1ccccc1C(=O)N[C@H](C)c1cccc2ccccc12							2.4
C=Cc1c(C)c2cc3nc(c4c5[nH]c(cc6nc(cc1[nH]2)C(C)=C6CC)c(C)c5C(=O)C4)[C@@H](CCC(=O)O)[C@@H]3C	shake flask	octanol/water 1:1					0.554
Cc1nc(C(=O)NCC(=O)O)c(O)c2ccc(Oc3ccccc3)cc12	shake-flask, potentiometric	1-octanol/water					3.7
CCc1ccccc1NC(=O)CSc1nnc(-c2cccc(OC)c2)n1C		octanol/buffer		pH 11			2.85
O=C(O)c1ccc2nc(-c3cc(Cl)cc(Cl)c3)oc2c1	in-house determination						2.12
COC(=O)/C=C/C(=O)NNC(=O)CCc1ccccc1C(=O)N[C@H](C)c1cccc(-c2cncnc2)c1							1.9
